{"data": "Assay results pooled from the literature", "note": "± gives the spread as reported.", "sequence of UniProt P37689 (whole entry, looked up)": "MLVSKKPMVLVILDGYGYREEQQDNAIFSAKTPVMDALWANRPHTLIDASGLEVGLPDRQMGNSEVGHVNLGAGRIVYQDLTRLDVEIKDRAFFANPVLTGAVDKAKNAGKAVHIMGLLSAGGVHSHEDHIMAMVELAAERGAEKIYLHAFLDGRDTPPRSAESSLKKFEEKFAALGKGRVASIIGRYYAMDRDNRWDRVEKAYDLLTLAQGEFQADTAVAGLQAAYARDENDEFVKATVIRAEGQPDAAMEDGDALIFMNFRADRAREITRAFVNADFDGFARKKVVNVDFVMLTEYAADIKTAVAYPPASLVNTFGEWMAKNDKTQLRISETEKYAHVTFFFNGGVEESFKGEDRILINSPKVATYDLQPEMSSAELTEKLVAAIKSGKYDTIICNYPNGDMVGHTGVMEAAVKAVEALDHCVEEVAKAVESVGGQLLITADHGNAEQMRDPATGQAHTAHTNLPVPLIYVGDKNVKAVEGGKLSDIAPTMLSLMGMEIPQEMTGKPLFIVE"}
{"Compound": "c1csc(CNCC23C4CCC5C4C4C(CCC42)C53)c1", "tested on": "Influenza A virus", "test": "viral replication", "system": "MDCK, H1N1 A/PR/8/34", "endpoint": "EC50", "result": "> 100 µM"}
{"Compound": "NCCCC[C@H](NC(=O)CNC(=O)CNC(=O)[C@H](CCCCN)NC(=O)CNC(=O)CNC(=O)CNC(=O)[C@H](CCCCN)NC(=O)CNC(=O)CNC(=O)[C@H](CCCCN)NC(=O)CNC(=O)CNC(=O)CNC(=O)[C@H](CCCCN)NC(=O)CNC(=O)CNC(=O)[C@H](CCCCN)NC(=O)CNC(=O)CNC(=O)CNC(=O)[C@H](CCCCN)NC(=O)CNC(=O)CNC(=O)[C@H](CCCCN)NC(=O)[C@H](CO)NC(=O)[C@H](Cc1ccc(O)cc1)NC(=O)CNC(=O)CNC(=O)CN)C(=O)NCC(=O)O", "test": "binding, SPR two-state model", "system": "rVλ6Wil fibrils", "setting": "300 nM, pH 7.4", "endpoint": "ka1", "result": "75000 M⁻¹ s⁻¹"}
{"Compound": "CC(=N)NCC12C3CCC4C3C3C(CCC31)C42", "tested on": "Influenza A virus", "test": "viral replication", "system": "MDCK, H3N2 A/HK/7/87", "endpoint": "EC50", "result": "> 100 µM"}
{"Compound": "CCCC[C@H]1C(=O)N2CCC[C@H]2C(=O)N[C@H](C(N)=O)CSCC(=O)N[C@@H](Cc2ccc(O)cc2)C(=O)N(C)[C@@H](Cc2ccc(OC)cc2)C(=O)N[C@@H](CCCNC(=N)N)C(=O)N(C)[C@@H](Cc2ccccc2)C(=O)N[C@@H](CC(=O)O)C(=O)N(C)[C@@H](CO)C(=O)N(C)[C@@H](Cc2ccc(O)cc2)C(=O)N[C@@H](CCC(N)=O)C(=O)N[C@@H](CO)C(=O)N(C)[C@@H](CO)C(=O)N(C)[C@@H](Cc2ccc(OC)cc2)C(=O)N[C@@H](C(C)C)C(=O)N(C)[C@@H](Cc2ccc(O)cc2)C(=O)N1C", "tested on": "gpmI (Escherichia coli, UniProt P37689)", "test": "enzyme activity, inhibitor, luminescent coupled-enzyme ATP", "setting": "15 min, 37 °C", "endpoint": "AC50", "result": "3.09 µM"}
{"Compound": "Cc1ccc(/C=C/C(=O)O)cc1-c1cc2c(cc1C)C(C)(C)CCC2(C)C", "test": "RNA sequencing, item: Emr4 mRNA", "system": "rat, brain", "setting": "dose not given, 24 h, single dose", "scale": "baseline: vehicle", "endpoint": "log2 fold change", "result": 0.25}
{"Compound": "N=C(N)NCCC[C@@H]1NC(=O)[C@H](CCCCNC(=O)CCOCCOCCOCCOCCNC(=O)CN2CCN(CC(=O)O)CCN(CC(=O)O)CCN(CC(=O)O)CC2)NC(=O)[C@@H](Cc2ccccc2)NC(=O)[C@H](CC(=O)O)NC(=O)CNC1=O [indium-111 labelled]", "system": "athymic nude mice, female, U-87 MG glioma xenograft, tumour and heart", "setting": "intravenous, 24 h", "scale": "baseline: tumour over heart", "endpoint": "tumour to tissue ratio", "result": "9.91 ± 0.73"}
{"Compound": "CCCCCCCCCCCCCC(=O)NCC(=O)N[C@@H](CCCNC(=N)N)C(=O)N[C@@H](Cc1c[nH]c2ccccc12)C(=O)N[C@@H](CCCCN)C(=O)N[C@H](C(=O)N[C@@H](Cc1ccccc1)C(=O)N[C@@H](CCCCN)C(=O)N[C@@H](CCCCN)C(=O)N[C@H](C(=O)N[C@@H](CCC(=O)O)C(=O)N[C@@H](CCCCN)C(=O)N[C@H](C(=O)NCC(=O)N[C@@H](CCC(N)=O)C(=O)N[C@@H](CC(N)=O)C(=O)N[C@H](C(=O)N[C@@H](CCCNC(=N)N)C(=O)N[C@@H](CC(=O)O)C(=O)NCC(=O)N[C@H](C(=O)N[C@H](C(=O)N[C@@H](CCCCN)C(=O)N[C@@H](C)C(=O)NCC(=O)N1CCC[C@H]1C(=O)N[C@@H](C)C(=O)N[C@H](C(=O)N[C@@H](C)C(=O)N[C@H](C(=O)N[C@H](C(=O)NCC(=O)N[C@@H](CCC(N)=O)C(=O)N[C@@H](C)C(=O)N[C@@H](C)C(=O)N[C@H](C(=O)N[C@H](C(N)=O)[C@@H](C)CC)[C@@H](C)O)C(C)C)C(C)C)C(C)C)C(C)C)[C@@H](C)CC)[C@@H](C)CC)C(C)C)[C@@H](C)CC)[C@@H](C)CC", "tested on": "K562/MDR", "test": "western blot", "setting": "concentration not given, 16 h", "endpoint": "Bcl-2 protein level", "result": "decreased"}
{"Compound": "CC(C)C[C@H](NC(=O)[C@H](CCCNC(=N)N)NC(=O)[C@@H](Cc1ccccc1)NC(=O)CN)C(=O)N[C@@H](CC(N)=O)C(=O)N[C@@H](CO)C(=O)N[C@@H](C)C(=O)N[C@@H](CO)C(=O)N[C@@H](CCCNC(=N)N)C(=O)N[C@H](C(=O)N[C@@H](C)C(=O)N[C@@H](Cc1c[nH]cn1)C(=O)NCC(=O)N[C@@H](Cc1ccc(O)cc1)C(N)=O)C(C)C", "tested on": "ATRP receptor 2 (Aplysia californica)", "test": "cAMP, agonist", "scale": "baseline: compound over all-L-ATRP", "endpoint": "potency ratio", "result": "~600 fold"}
{"Compound": "CN[C@](C)(C[18F])C(=O)O", "tested on": "SK-OV-3 tumour model", "system": "host not given, lung", "setting": "15 min, tumour-bearing", "endpoint": "tracer uptake", "result": "3.2 %ID/g"}
{"Compound": "CCN(Cc1ccccc1)C(=O)CCc1nc(CN2CCN(C(=O)Cc3ccc(OC)c(OC)c3)CC2)no1", "test": "mechanical withdrawal threshold, von Frey", "system": "mouse CCI model", "setting": "1 mg/kg, dosing from day 11", "endpoint": "onset day", "result": "15 days"}
{"Compound": "CCc1ccc([C@@H]2C[C@H](C(F)(F)F)n3ncc(C(=O)NCc4ccc(OC)cc4)c3N2)cc1", "tested on": "Haemophilus influenzae", "test": "microbial growth, broth dilution", "system": "H128", "endpoint": "MIC", "result": "64 µM"}
{"Compound": "CCCCCc1cc(O)c2c(c1)OC(C)(C)C1CCC(C)=CC21 (stereo not drawn)", "system": "rabbit, α-chymotrypsin glaucoma model", "setting": "topical, 50 µL of 0.8% w/v, 1.5 h", "scale": "baseline: baseline", "endpoint": "intraocular pressure", "result": "83.7%"}
{"Compound": "N=C(N)NCCC[C@@H]1NC(=O)[C@H](CCCCNC(=O)CC[C@H](NC(=O)CCOCCOCCOCCOCCNC(=O)CC[C@H](NC(=O)CN2CCN(CC(=O)O)CCN(CC(=O)O)CCN(CC(=O)O)CC2)C(=O)NCCOCCOCCOCCOCCC(=O)N[C@@H](CCC(=O)NCCCC[C@@H]2NC(=O)[C@@H](Cc3ccccc3)NC(=O)[C@H](CC(=O)O)NC(=O)CNC(=O)[C@H](CCCNC(=N)N)NC2=O)C(=O)NCCCC[C@@H]2NC(=O)[C@@H](Cc3ccccc3)NC(=O)[C@H](CC(=O)O)NC(=O)CNC(=O)[C@H](CCCNC(=N)N)NC2=O)C(=O)NCCCC[C@@H]2NC(=O)[C@@H](Cc3ccccc3)NC(=O)[C@H](CC(=O)O)NC(=O)CNC(=O)[C@H](CCCNC(=N)N)NC2=O)NC(=O)[C@@H](Cc2ccccc2)NC(=O)[C@H](CC(=O)O)NC(=O)CNC1=O [indium-111 labelled]", "system": "female athymic nude mice, blood", "setting": "intravenous, 3 µCi, 0.5 h, U-87 MG glioma xenograft", "endpoint": "tissue uptake", "result": "1.12 ± 0.08 %ID/g"}
{"Compound": "CC(C)C1=C(OC(=O)Cc2ccccc2)C(=O)C2=C(C=C[C@H]3C(C)(C)CCC[C@]23C)C1=O", "test": "hydroxyl radical absorbance capacity, fluorometric", "endpoint": "HORAC", "result": "0.608 Trolox equivalents"}
{"Compound": "CC[C@H](C)[C@H](NC(=O)[C@@H](NC(=O)[C@H](CC(=O)O)NC(C)=O)[C@@H](C)O)C(=O)N[C@@H](CCCNC(=N)N)C(=O)N[C@@H](CC(C)C)C(=O)N[C@@H](CC(C)C)C(=O)N[C@@H](Cc1ccccc1)C(=O)N[C@@H](CCC(N)=O)C(=O)N[C@@H](CC(C)C)C(=O)N[C@@H](CCSC)C(=O)N[C@@H](CCCNC(=N)N)C(=O)N1CCC[C@H]1C(=O)N1CCC[C@H]1C(=O)N[C@@H](CC(N)=O)C(=O)N[C@@H](CCSC)C(=O)N[C@H](C(=O)N1CCC[C@H]1C(=O)N[C@@H](C)C(=O)N[C@H](C(=O)N[C@@H](CC(N)=O)C(=O)N[C@@H](C)C(N)=O)C(C)C)[C@@H](C)O", "test": "item: HA-41 tetramer", "system": "tetramer+ CD4 T cells, PBMC, healthy adults, HLA-DRB1*0101", "setting": "dose not given, CD62L−CD45RA+/− or CD62L+CD45RA−", "endpoint": "antigen-experienced T cells", "result": "67.3%"}
{"Compound": "CC/C=C\\C/C=C\\C/C=C\\C/C=C\\C/C=C\\C/C=C\\CCC(=O)Nc1ccn(C2OC(CO)C(O)C2(F)F)c(=O)n1 (stereo not drawn)", "tested on": "BT-549", "endpoint": "CC50", "result": "44.2 µM"}
{"Compound": "COc1cc(C(=O)NCCOCCOCCOCCNC(=O)c2ccc([18F])nc2)ccc1NC(=O)C1NC(CC(C)(C)C)C(C#N)(c2ccc(Cl)cc2F)C1c1cccc(Cl)c1F (stereo not drawn)", "tested on": "SJSA-1 tumour model", "system": "host not given, bone", "setting": "2 h, tumour-bearing", "endpoint": "tracer uptake", "result": "0.37 %ID/g"}
{"Compound": "CCCCCCCCC(=O)NCc1ccc(O)c(OC)c1", "tested on": "mAb 5-3H1", "test": "antibody binding, indirect competitive ELISA", "setting": "with: coating antigen 3-OVA", "endpoint": "IC50", "result": "0.243 µg/mL"}
